Measurements pooled from the literature.
Lines come from different studies, so protocols differ. “And” joins repeats or separate records; there may be more than shown. Numbers after ± are the reported error.

Compound = CC[C@H](C)[C@@H](C(=O)N[C@@H](CC(C)C)C(=O)N[C@@H](CO)C(=O)N[C@@H](CO)C(=O)N[C@H](C(=O)N[C@@H](CCC(=O)O)C(=O)N[C@H](C(=O)NCC(=O)N[C@@H](CO)C(=O)NCC(=O)N[C@H](C(=O)N1C[C@H](O)C[C@H]1C(N)=O)[C@@H](C)O)C(C)C)[C@@H](C)O)N(C)C(=O)[C@H](C)NC(=O)CN(C)C(=O)[C@H](Cc1ccccc1)NC(=O)[C@H](CO)NC(=O)[C@H](CO)NC(=O)[C@H](CCCNC(=N)N)NC(=O)[C@H](CCC(N)=O)NC(=O)[C@H](CC(C)C)NC(=O)[C@H](Cc1ccccc1)NC(=O)[C@H](Cc1c[nH]cn1)NC(=O)[C@H](C)NC(=O)[C@H](CC(C)C)NC(=O)[C@H](CCCNC(=N)N)NC(=O)[C@H](CCC(N)=O)NC(=O)[C@@H](NC(=O)[C@H](C)NC(=O)[C@@H]1CSSC[C@H](NC(=O)[C@H](CCCNC(=N)N)NC(=O)CC[C@H](NC(=O)CCCCCCCCCCCCCCCCCCC(=O)O)C(=O)O)C(=O)N[C@@H](CC(N)=O)C(=O)N[C@@H]([C@@H](C)O)C(=O)N[C@@H](C)C(=O)N[C@@H]([C@@H](C)O)C(=O)N1)[C@@H](C)O; assay = RP-HPLC; test system = water; conditions = 7 days, pH 7.5, 40 °C; quantity = remaining main peak; value = 91 area %
Compound = C[C@](C(=O)NC1CCC(F)(F)CC1)(c1cncnc1)N(C(=O)[C@H](F)Cl)c1ccc(OC(F)(F)F)cc1; test system = human liver microsomes; conditions = concentration not given, 1 h, pH 7.4; quantity = remaining compound; value = 4%
Compound = CC[C@H](C)[C@@H](C(=O)N[C@@H](CC(C)C)C(=O)N[C@@H](CO)C(=O)N[C@@H](CO)C(=O)N[C@H](C(=O)N[C@@H](CCC(=O)O)C(=O)N[C@H](C(=O)NCC(=O)N[C@@H](CO)C(=O)N[C@@H](CO)C(=O)N[C@H](C(=O)N1C[C@H](O)C[C@H]1C(N)=O)[C@@H](C)O)C(C)C)[C@@H](C)O)N(C)C(=O)[C@H](C)NC(=O)CN(C)C(=O)[C@H](Cc1ccccc1)NC(=O)[C@H](CO)NC(=O)[C@H](CO)NC(=O)[C@H](CCCNC(=N)N)NC(=O)[C@H](CCC(N)=O)NC(=O)[C@H](CC(C)C)NC(=O)[C@H](Cc1ccccc1)NC(=O)[C@H](Cc1c[nH]cn1)NC(=O)[C@H](C)NC(=O)[C@H](CC(C)C)NC(=O)[C@H](CCCNC(=N)N)NC(=O)[C@H](CCC(=O)O)NC(=O)[C@@H](NC(=O)[C@H](C)NC(=O)[C@@H]1CSSC[C@H](NC(=O)[C@H](CCCNC(=N)N)NC(=O)CC[C@H](NC(=O)CCCCCCCCCCCCCCCCCCC(=O)O)C(=O)O)C(=O)NCC(=O)N[C@@H]([C@@H](C)O)C(=O)N[C@@H](C)C(=O)N[C@@H]([C@@H](C)O)C(=O)N1)[C@@H](C)O; assay = RP-HPLC; test system = water; conditions = 7 days, pH 6.0, 40 °C; quantity = remaining main peak; value = 86 area %
Compound = CSCC[C@@H](N)C(=O)N[C@@H](CC(C)C)C(=O)N[C@@H](CCCNC(=N)N)C(=O)N[C@@H](Cc1c[nH]c2ccccc12)C(=O)N[C@@H](CO)C(=O)N[C@@H](CCCNC(=N)N)C(=O)N[C@@H](CCCCN)C(=O)N[C@@H](CCSC)C(=O)N1CCC[C@H]1C(=O)N[C@@H](CS)C(=O)N[C@H](C(=O)N[C@@H](CO)C(=O)O)C(C)C; assay = 12G5 competition, SUP-T1 cells; test system = human plasma; conditions = concentration not given, 8 h; quantity = remaining activity; value = 34 ± 11%
Compound = N=C(N)NCCC[C@@H]1NC(=O)[C@H](CCCNC(=N)N)NC(=O)[C@@H](CCCNC(=N)N)NC(=O)[C@@H](CCCNC(=N)N)NC(=O)[C@@H](C(c2ccccc2)c2ccccc2)NC(=O)[C@H](Cc2c[nH]c3ccccc23)NC(=O)[C@@H](C(c2ccccc2)c2ccccc2)NC1=O; assay = LC-MS; test system = human plasma; conditions = 30 min; quantity = remaining peptide; value = ~90.4%
Compound = O=C(NC1CCC(F)(F)CC1)C(c1cncnc1)N(C(=O)C(F)Cl)c1ccc(-c2cncs2)cc1 (centres unmarked); test system = mouse liver microsomes; conditions = concentration not given, 1 h, pH 7.4; quantity = remaining compound; value = 31%
Compound = Cc1ccc(C(C)C)cc1.F[P-](F)(F)(F)(F)F.O=C(N=P(c1ccccc1)(c1ccccc1)c1ccccc1)c1ccccn1.[Cl-].[Ru+2]; test system = DMSO-d6; conditions = 2 weeks; quantity = remaining intact compound; value = > 99%
Compound = C#Cc1c(F)ccc2cc(O)cc(-c3ncc4c(N5CC6CCC(C5)N6C(=O)OC(C)OC(=O)CC[C@@H](C)[C@H]5CC[C@H]6[C@@H]7CC[C@@H]8C[C@H](O)CC[C@]8(C)[C@H]7C[C@H](O)[C@]56C)nc(OC[C@@]56CCCN5C[C@H](F)C6)nc4c3F)c12 (some centres unmarked); test system = simulated gastric fluid; conditions = 1 µM, 30 min, 37 °C; quantity = remaining prodrug; value = 100%
Compound = O=C(NC1CCC(F)(F)CC1)C(c1cncnc1)N(C(=O)C(F)Cl)c1ccc(OC(F)(F)F)cc1 (centres unmarked); test system = human liver microsomes; conditions = concentration not given, 0.5 h, pH 7.4; quantity = remaining compound; value = 98.3%
Compound = CN(Cc1cc(C2CC2)on1)C(=O)c1cccc(-c2ccc(F)cc2)c1; test system = human liver microsomes; conditions = 2 µM, 15 min, pH 7.5, without ABT; quantity = remaining compound; value = 79.4%
Compound = CC[C@H](C)[C@@H](C(=O)N[C@@H](CC(C)C)C(=O)N[C@@H](CO)C(=O)N[C@@H](CO)C(=O)N[C@H](C(=O)N[C@@H](CCC(=O)O)C(=O)N[C@H](C(=O)NCC(=O)N[C@@H](CO)C(=O)N[C@@H](CO)C(=O)N[C@H](C(=O)N1C[C@H](O)C[C@H]1C(N)=O)[C@@H](C)O)C(C)C)[C@@H](C)O)N(C)C(=O)[C@H](C)NC(=O)CN(C)C(=O)[C@H](Cc1ccccc1)NC(=O)[C@H](CO)NC(=O)[C@H](CO)NC(=O)[C@H](CCCNC(=N)N)NC(=O)[C@@H](NC(=O)[C@H](CC(C)C)NC(=O)[C@H](Cc1ccccc1)NC(=O)[C@H](Cc1c[nH]cn1)NC(=O)[C@H](C)NC(=O)[C@H](CC(C)C)NC(=O)[C@H](CCCNC(=N)N)NC(=O)[C@H](CCC(=O)O)NC(=O)[C@@H](NC(=O)[C@H](C)NC(=O)[C@@H]1CSSC[C@H](NC(=O)[C@H](CCCNC(=N)N)NC(=O)CC[C@H](NC(=O)CCCCCCCCCCCCCCCCCCC(=O)O)C(=O)O)C(=O)NCC(=O)N[C@@H]([C@@H](C)O)C(=O)N[C@@H](C)C(=O)N[C@@H]([C@@H](C)O)C(=O)N1)[C@@H](C)O)[C@@H](C)O; assay = RP-HPLC; test system = water; conditions = 7 days, pH 6.0, 40 °C; quantity = remaining main peak; value = 87 area %
Compound = C=CC(=O)Nc1cc(Nc2nccc(-c3cn(C)c4ccccc34)n2)c(OC)cc1N(C)CCNC; assay = storage stability; test system = human dried blood spot; conditions = 270 ng/mL, 24 h, on ice, HQC level; quantity = remaining amount; value = 74.8%
Compound = Cc1ccc(C(C)C)cc1.O=C(N=P(c1ccccc1)(c1ccccc1)c1ccccc1)c1[c-]cccc1.[Cl-].[Ru+2]; test system = DMSO-d6; conditions = 1 month; quantity = remaining intact compound; value = 0%
Compound = CC[C@H](C)[C@@H](C(=O)N[C@@H](CC(C)C)C(=O)N[C@@H](CO)C(=O)N[C@@H](CO)C(=O)N[C@H](C(=O)N[C@@H](CCC(=O)O)C(=O)N[C@H](C(=O)NCC(=O)N[C@@H](CO)C(=O)N[C@@H](CC(N)=O)C(=O)N[C@H](C(=O)N1C[C@H](O)C[C@H]1C(N)=O)[C@@H](C)O)C(C)C)[C@@H](C)O)N(C)C(=O)[C@H](C)NC(=O)CN(C)C(=O)[C@H](Cc1ccccc1)NC(=O)[C@H](CO)NC(=O)[C@H](CO)NC(=O)[C@H](CCCNC(=N)N)NC(=O)[C@H](CCC(N)=O)NC(=O)[C@H](CC(C)C)NC(=O)[C@H](Cc1ccccc1)NC(=O)[C@H](CC(=O)O)NC(=O)[C@H](C)NC(=O)[C@H](CC(C)C)NC(=O)[C@H](CCCNC(=N)N)NC(=O)[C@H](CCC(N)=O)NC(=O)[C@@H](NC(=O)[C@H](C)NC(=O)[C@@H]1CSSC[C@H](NC(=O)[C@H](CCCNC(=N)N)NC(=O)CC[C@H](NC(=O)CCCCCCCCCCCCCCCCCCC(=O)O)C(=O)O)C(=O)N[C@@H](CC(N)=O)C(=O)N[C@@H]([C@@H](C)O)C(=O)N[C@@H](C)C(=O)N[C@@H]([C@@H](C)O)C(=O)N1)[C@@H](C)O; assay = RP-HPLC; test system = water; conditions = 7 days, pH 7.5, 40 °C; quantity = remaining main peak; value = 91 area %
Compound = CC(C)(C)[C@H](NC(=O)c1ccc(Oc2ccc(C(=O)N[C@H]3CCCC[C@@H]3O)cc2)cc1)C(=O)NCCN1CCCC1; test system = human liver microsomes; conditions = 1 µM, 30 min, pH 7.4; quantity = remaining compound; value = 86.2%
Compound = CC[C@H](C)[C@@H](C(=O)N[C@@H](CC(C)C)C(=O)N[C@@H](CO)C(=O)N[C@@H](CO)C(=O)N[C@H](C(=O)N[C@@H](CCC(=O)O)C(=O)N[C@H](C(=O)NCC(=O)N[C@@H](CO)C(=O)NCC(=O)N[C@H](C(=O)N1C[C@H](O)C[C@H]1C(N)=O)[C@@H](C)O)C(C)C)[C@@H](C)O)N(C)C(=O)[C@H](C)NC(=O)CN(C)C(=O)[C@H](Cc1ccccc1)NC(=O)[C@H](CO)NC(=O)[C@H](CO)NC(=O)[C@H](CCCNC(=N)N)NC(=O)[C@@H](NC(=O)[C@H](CC(C)C)NC(=O)[C@H](Cc1ccccc1)NC(=O)[C@H](Cc1c[nH]cn1)NC(=O)[C@H](C)NC(=O)[C@H](CC(C)C)NC(=O)[C@H](CCCNC(=N)N)NC(=O)[C@H](CCC(=O)O)NC(=O)[C@@H](NC(=O)[C@H](C)NC(=O)[C@@H]1CSSC[C@H](NC(=O)[C@H](CCCNC(=N)N)NC(=O)CC[C@H](NC(=O)CCCCCCCCCCCCCCCCCCC(=O)O)C(=O)O)C(=O)NCC(=O)N[C@@H]([C@@H](C)O)C(=O)N[C@@H](C)C(=O)N[C@@H]([C@@H](C)O)C(=O)N1)[C@@H](C)O)[C@@H](C)O; assay = RP-HPLC; test system = water; conditions = 7 days, pH 7.5, 40 °C; quantity = remaining main peak; value = 95 area %
Compound = CC(C)(C)[Si](C)(C)Oc1ccc(COC(=O)NNc2ccccc2)cc1; test system = PBS; conditions = 18 h, 37 °C; scale = reference: initial amount; quantity = remaining fraction; value = 0.93 and 0.96 and 0.87

Excerpt of the above:
Compound = CN(Cc1cc(C2CC2)on1)C(=O)c1cccc(-c2ccc(F)cc2)c1; test system = human liver microsomes; conditions = 2 µM, 15 min, pH 7.5, without ABT; quantity = remaining compound; value = 79.4%
